Results of several laboratories.
Parts stem from different laboratories: compare values within a part only.
Sequence of UniProt P32246 (whole entry, looked up): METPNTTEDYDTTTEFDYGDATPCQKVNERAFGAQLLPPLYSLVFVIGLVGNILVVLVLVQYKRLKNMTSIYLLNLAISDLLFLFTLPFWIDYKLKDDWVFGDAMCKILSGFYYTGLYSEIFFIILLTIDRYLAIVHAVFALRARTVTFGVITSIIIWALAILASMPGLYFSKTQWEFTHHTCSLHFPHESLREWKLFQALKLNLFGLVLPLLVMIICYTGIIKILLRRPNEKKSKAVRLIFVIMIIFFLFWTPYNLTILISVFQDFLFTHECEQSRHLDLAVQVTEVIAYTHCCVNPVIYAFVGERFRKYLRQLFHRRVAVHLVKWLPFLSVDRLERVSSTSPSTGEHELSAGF
Sequence of UniProt Q9UJ42 (whole entry, looked up): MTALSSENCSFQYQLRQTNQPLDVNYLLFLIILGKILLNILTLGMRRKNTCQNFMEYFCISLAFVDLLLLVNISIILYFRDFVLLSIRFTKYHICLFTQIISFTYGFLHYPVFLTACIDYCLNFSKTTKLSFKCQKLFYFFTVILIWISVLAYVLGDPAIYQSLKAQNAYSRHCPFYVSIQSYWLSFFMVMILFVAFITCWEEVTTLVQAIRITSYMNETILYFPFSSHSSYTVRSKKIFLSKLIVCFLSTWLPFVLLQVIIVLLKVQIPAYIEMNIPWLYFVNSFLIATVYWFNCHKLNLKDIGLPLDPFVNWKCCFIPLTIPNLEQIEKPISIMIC
Sequence of UniProt Q8TDU6 (whole entry, looked up): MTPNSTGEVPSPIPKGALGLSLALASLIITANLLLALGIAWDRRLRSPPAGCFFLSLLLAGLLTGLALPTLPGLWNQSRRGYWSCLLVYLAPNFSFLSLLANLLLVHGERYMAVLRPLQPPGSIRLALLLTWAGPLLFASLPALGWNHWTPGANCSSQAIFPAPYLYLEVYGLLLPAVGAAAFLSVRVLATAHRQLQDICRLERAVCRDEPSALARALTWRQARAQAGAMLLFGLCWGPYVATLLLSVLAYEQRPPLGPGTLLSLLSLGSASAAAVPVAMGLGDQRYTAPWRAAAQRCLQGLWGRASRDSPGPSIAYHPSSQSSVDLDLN
Sequence of UniProt Q99640 (whole entry, looked up): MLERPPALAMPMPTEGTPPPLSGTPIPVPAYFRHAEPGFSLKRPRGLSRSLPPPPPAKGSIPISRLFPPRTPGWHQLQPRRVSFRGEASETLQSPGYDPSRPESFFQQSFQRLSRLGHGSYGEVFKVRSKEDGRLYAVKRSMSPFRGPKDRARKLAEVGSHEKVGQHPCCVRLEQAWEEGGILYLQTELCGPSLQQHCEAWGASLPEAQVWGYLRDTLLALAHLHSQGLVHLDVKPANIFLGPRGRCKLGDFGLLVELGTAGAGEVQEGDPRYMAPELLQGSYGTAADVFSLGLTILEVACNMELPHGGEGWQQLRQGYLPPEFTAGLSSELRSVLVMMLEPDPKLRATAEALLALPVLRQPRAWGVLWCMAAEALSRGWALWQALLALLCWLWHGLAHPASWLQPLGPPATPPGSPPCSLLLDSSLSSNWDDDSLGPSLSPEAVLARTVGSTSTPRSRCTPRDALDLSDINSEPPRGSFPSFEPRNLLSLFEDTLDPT
Sequence of UniProt P30989 (whole entry, looked up): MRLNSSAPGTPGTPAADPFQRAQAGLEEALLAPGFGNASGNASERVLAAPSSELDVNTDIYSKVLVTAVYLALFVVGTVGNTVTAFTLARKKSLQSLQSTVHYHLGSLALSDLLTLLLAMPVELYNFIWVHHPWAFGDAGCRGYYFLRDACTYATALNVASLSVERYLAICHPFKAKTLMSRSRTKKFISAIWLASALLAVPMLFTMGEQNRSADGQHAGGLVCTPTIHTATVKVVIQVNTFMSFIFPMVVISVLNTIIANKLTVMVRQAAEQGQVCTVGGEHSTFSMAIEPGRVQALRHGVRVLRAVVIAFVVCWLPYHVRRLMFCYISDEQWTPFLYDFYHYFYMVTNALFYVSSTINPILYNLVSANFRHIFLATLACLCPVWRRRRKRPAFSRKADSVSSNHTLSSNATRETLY
Sequence of UniProt P25090 (whole entry, looked up): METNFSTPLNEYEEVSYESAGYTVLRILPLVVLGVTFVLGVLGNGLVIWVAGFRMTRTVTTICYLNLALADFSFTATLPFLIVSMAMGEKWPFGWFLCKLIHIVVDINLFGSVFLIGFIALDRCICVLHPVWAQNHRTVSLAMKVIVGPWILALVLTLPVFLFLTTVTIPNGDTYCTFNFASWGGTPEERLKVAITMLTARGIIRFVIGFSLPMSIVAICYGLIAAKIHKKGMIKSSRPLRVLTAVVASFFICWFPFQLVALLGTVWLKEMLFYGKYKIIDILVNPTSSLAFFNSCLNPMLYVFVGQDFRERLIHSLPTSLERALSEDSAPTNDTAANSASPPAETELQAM
Sequence of UniProt Q9Y6E0 (whole entry, looked up): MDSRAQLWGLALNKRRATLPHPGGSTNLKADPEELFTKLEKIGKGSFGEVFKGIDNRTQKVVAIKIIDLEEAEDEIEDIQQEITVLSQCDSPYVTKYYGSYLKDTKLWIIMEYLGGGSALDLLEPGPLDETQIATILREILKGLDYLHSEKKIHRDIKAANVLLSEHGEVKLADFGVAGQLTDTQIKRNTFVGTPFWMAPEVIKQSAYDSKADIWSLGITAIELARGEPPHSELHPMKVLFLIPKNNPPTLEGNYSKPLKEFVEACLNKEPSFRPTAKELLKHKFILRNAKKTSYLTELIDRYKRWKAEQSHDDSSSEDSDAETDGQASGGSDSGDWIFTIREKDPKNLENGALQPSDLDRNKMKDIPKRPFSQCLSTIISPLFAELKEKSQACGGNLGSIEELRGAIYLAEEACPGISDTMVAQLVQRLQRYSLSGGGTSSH
Sequence of UniProt P08172 (whole entry, looked up): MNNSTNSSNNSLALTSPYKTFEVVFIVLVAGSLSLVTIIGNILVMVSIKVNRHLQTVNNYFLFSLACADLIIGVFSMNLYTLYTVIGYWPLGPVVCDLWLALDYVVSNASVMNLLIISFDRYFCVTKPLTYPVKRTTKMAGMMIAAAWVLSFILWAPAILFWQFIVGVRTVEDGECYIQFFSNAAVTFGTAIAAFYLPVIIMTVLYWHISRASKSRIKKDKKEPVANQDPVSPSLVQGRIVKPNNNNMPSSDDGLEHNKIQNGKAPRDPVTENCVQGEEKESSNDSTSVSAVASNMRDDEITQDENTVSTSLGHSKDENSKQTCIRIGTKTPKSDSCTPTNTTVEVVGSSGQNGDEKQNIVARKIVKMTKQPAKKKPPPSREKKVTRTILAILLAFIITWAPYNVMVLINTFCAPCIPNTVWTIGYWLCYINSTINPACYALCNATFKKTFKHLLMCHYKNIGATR
Sequence of UniProt O14757 (whole entry, looked up): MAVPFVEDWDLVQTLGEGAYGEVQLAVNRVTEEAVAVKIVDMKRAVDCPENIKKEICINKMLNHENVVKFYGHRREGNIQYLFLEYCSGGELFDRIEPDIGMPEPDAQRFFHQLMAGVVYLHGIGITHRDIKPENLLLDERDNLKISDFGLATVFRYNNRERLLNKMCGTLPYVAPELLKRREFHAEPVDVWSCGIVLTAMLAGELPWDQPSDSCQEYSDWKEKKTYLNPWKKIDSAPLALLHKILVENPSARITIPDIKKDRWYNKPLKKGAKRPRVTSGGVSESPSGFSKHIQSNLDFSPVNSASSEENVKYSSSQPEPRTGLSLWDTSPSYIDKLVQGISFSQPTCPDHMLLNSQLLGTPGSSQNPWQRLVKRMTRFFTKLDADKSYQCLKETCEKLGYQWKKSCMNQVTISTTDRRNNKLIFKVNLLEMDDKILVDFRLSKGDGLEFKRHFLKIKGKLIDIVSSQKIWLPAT

Series 1 — technique: PRP chromatography; setting: linear fit, 1 mL; quantity: logD 1,9-decadiene/water
CC(C)C[C@@H]1NC(=O)[C@H](Cc2cscn2)NC(=O)[C@H](C)NC(=O)[C@H](CC(C)C)NC(=O)[C@@H](CCC(=O)N2CCCC2)NC(=O)[C@H](CC(C)C)NC(=O)[C@@H](CC(C)C)NC1=O: -1.32 log units
CC(C)C[C@@H]1NC(=O)[C@H](Cc2cscn2)NC(=O)[C@H](Cc2cscn2)NC(=O)[C@H](CCC(=O)N2CCCC2)NC(=O)[C@@H](CCC(=O)N2CCCC2)NC(=O)[C@H](CC(C)C)NC(=O)[C@@H](CC(C)C)NC1=O: -2.14 log units
CC(C)C[C@@H]1NC(=O)[C@H](CC(C)C)NC(=O)[C@H](CC(C)C)NC(=O)[C@H](CC(C)C)NC(=O)[C@@H](Cc2cscn2)NC(=O)[C@@H](CC(C)C)NC(=O)[C@H](C)NC1=O: -0.0319 log units
CC(C)C[C@@H]1NC(=O)[C@H](CC(C)C)NC(=O)[C@@H](CC(C)C)NC(=O)[C@H](C(C)C)NC(=O)[C@@H](CCC(=O)N2CCCC2)NC(=O)[C@H](Cc2cscn2)NC(=O)[C@H](C)NC1=O: -2.32 log units
CC(C)C[C@@H]1NC(=O)[C@H](Cc2cscn2)NC(=O)[C@H](CCC(=O)N2CCCC2)NC(=O)[C@@H](CCC(=O)N2CCCC2)NC(=O)[C@H](CC(C)C)NC(=O)[C@@H](CC(C)C)NC(=O)[C@H](CC(C)C)NC1=O: -1.2 log units
CC(C)C[C@@H]1NC(=O)[C@H](CC(C)C)NC(=O)[C@H](CC(C)C)NC(=O)[C@H](Cc2cscn2)NC(=O)[C@@H](Cc2cscn2)NC(=O)[C@@H](CC(C)C)NC(=O)[C@H](C)NC1=O: 0.196 log units
CC(C)C[C@@H]1NC(=O)[C@H](C)NC(=O)[C@@H](CC(C)C)NC(=O)[C@H](C)NC(=O)[C@@H](CCC(=O)N2CCCC2)NC(=O)[C@H](CC(C)C)NC(=O)[C@@H](CC(C)C)NC1=O: -1.56 log units
CC(C)C[C@@H]1NC(=O)[C@H](C(C)C)NC(=O)[C@H](CCC(=O)N2CCCC2)NC(=O)[C@H](CCC(=O)N2CCCC2)NC(=O)[C@@H](Cc2cscn2)NC(=O)[C@H](CC(C)C)NC(=O)[C@@H](CC(C)C)NC1=O: -4.39 log units

Series 2 — observed: enzyme activity; action: inhibitor; concentration: 0.5 µM; reference: control; quantity: remaining activity
Target: STE20-like serine/threonine-protein kinase (SLK, Homo sapiens, UniProt Q9H2G2)
Sequence of UniProt Q9H2G2 (whole entry, looked up): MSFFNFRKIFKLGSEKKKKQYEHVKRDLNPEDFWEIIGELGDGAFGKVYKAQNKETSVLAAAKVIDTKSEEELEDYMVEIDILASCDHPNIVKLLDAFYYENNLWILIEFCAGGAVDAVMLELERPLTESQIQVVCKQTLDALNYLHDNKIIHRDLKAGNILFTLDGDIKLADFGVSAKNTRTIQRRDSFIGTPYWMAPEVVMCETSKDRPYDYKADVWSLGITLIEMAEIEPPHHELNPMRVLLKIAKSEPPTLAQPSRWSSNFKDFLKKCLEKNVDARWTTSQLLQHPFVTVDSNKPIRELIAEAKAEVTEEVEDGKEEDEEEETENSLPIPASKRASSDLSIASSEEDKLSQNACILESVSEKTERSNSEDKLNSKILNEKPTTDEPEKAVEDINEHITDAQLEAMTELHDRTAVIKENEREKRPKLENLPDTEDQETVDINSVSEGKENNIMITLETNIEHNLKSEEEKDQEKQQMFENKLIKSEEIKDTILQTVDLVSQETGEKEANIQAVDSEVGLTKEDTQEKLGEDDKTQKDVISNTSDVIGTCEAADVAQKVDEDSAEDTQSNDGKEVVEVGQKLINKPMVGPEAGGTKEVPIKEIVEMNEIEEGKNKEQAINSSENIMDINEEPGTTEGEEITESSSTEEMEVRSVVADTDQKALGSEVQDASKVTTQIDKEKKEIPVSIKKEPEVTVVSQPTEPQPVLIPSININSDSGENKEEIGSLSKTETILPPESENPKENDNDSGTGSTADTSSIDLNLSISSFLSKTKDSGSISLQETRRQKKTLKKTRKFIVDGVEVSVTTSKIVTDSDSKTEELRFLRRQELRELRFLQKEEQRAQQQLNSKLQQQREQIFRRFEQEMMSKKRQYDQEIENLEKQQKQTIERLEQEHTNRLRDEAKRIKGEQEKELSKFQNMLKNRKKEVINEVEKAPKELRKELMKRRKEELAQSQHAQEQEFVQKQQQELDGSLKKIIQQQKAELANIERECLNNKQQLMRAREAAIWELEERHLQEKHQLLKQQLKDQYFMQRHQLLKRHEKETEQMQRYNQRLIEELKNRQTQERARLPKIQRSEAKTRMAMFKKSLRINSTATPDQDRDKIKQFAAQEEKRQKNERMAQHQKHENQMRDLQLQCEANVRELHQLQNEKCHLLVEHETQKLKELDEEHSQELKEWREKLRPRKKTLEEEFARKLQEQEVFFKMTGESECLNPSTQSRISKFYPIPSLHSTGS
c1ccc(-c2n[nH]c3c2oc2ccccc23)cc1: 107%
NC(=O)c1ccc(-c2nc(-c3ccc4c(c3)OCCO4)c(-c3ccccn3)[nH]2)cc1: 96.2%
N#C/C(=C(/N)SC1C=CC=CC1)c1cccc(C(O)c2ccncc2)c1 (stereo not shown): 105%
O=Nc1c(-c2c(O)[nH]c3ccccc23)[nH]c2ccccc12: 78.7%
CNc1cc2c(Nc3cccc(Br)c3)ncnc2cn1: 63%
CN(C)S(=O)(=O)c1ccc2c(c1)/C(=C/c1cc3c([nH]1)CCCC3)C(=O)N2: 23.4%
CC(C)n1cnc2c(Nc3cccc(Cl)c3)nc(NCCO)nc21: 84.8%
O=C(c1ccccc1)c1ccc(N2CCOCC2)cc1O: 106%
CCCNC(=O)Nc1ccc(Oc2ncnc3cc(OC)c(OC)cc23)cc1Cl: 80%
COc1cc2c(Nc3ccc(Br)cc3F)ncnc2cc1OCC1CCN(C)CC1: 73.9%
c1cc(-c2cnn3cc(-c4ccc(OCCN5CCCCC5)cc4)cnc23)ccn1: 74.9%
O=C1NC(=O)c2c1c1c3ccccc3[nH]c1n1cncc21: 87.8%
O=C1NC(=O)/C(=C/c2ccc3c(c2)OC(F)(F)O3)S1: 98.3%
N#CC(c1ccnc(NCCc2cccnc2)n1)c1nc2ccccc2s1 (stereo not shown): 87.7%
Clc1ccc(Nc2nnc(Cc3ccncc3)c3ccccc23)cc1: 94.2%
O=C1c2ccccc2-c2nc3nnnn3nc21: 92.4%
COc1cc2c(N3CCN(C(=O)Nc4ccc(OC(C)C)cc4)CC3)ncnc2cc1OCCCN1CCCCC1: 94.6%
CN1CCN(c2ccc3nc(-c4c(N)c5c(F)cccc5[nH]c4=O)[nH]c3c2)CC1: 68.1%
c1ccc2c(-c3ccncc3)c[nH]c2c1: 103%
CC(C)(C)c1nc2c3cc[nH]c(=O)c3c3cc(F)ccc3c2[nH]1: 91.4%

Series 3 — technique: competition with immobilised ligand; concentration: 1 µM; quantity: remaining binding
SMILES: O=C(O)[C@H]1[C@H](Cn2nnc3ccccc3c2=O)CC[C@@H]1C(=O)c1ccc(OCCC2CCOCC2)cc1
PHKG2 (Homo sapiens, UniProt P15735); cell-free assay: 100%
Tyrosine-protein kinase ABL1, phosphorylated (ABL1, Homo sapiens, UniProt P00519, E255K); binding: 75%
STK24 (Homo sapiens, UniProt Q9Y6E0); cell-free assay: 90%
RIOK3 (Homo sapiens, UniProt O14730); cell-free assay: 79%
CHEK1 (Homo sapiens, UniProt O14757); cell-free assay: 100%
PKMYT1 (Homo sapiens, UniProt Q99640); cell-free assay: 96%
Tyrosine-protein kinase ABL1, phosphorylated (ABL1, Homo sapiens, UniProt P00519, M351T); cell-free assay: 82%

Series 4 — SMILES: CCN(c1nc(N)c(C(=O)N=C(N)N)nc1Cl)C(C)C; observed: β-arrestin recruitment; action: agonist; technique: PRESTO-Tango; concentration: 10 µM; reference: untreated; quantity: fold over basal
CCKAR (Homo sapiens, UniProt P32238): 0.94
GPBAR1 (Homo sapiens, UniProt Q8TDU6): 1.07 fold
CHRM2 (Homo sapiens, UniProt P08172): 1.07
QRFPR (Homo sapiens, UniProt Q96P65): 0.79
TACR1 (Homo sapiens, UniProt P25103): 1.3 fold
Probable G-protein coupled receptor 160 (GPR160, Homo sapiens, UniProt Q9UJ42): 0.83
CCR1 (Homo sapiens, UniProt P32246): 0.56
FPR2 (Homo sapiens, UniProt P25090): 1.02 fold
Adhesion G-protein coupled receptor D1 (ADGRD1, Homo sapiens, UniProt Q6QNK2): 0.59
Calcitonin receptor, isoform b (CALCR, Homo sapiens, UniProt P30988): 1.65
NTSR1 (Homo sapiens, UniProt P30989): 1.03

Repeated from above (series 2):
O=Nc1c(-c2c(O)[nH]c3ccccc23)[nH]c2ccccc12: 78.7%
CNc1cc2c(Nc3cccc(Br)c3)ncnc2cn1: 63%
CN(C)S(=O)(=O)c1ccc2c(c1)/C(=C/c1cc3c([nH]1)CCCC3)C(=O)N2: 23.4%
CC(C)n1cnc2c(Nc3cccc(Cl)c3)nc(NCCO)nc21: 84.8%
O=C(c1ccccc1)c1ccc(N2CCOCC2)cc1O: 106%
CCCNC(=O)Nc1ccc(Oc2ncnc3cc(OC)c(OC)cc23)cc1Cl: 80%
